Assay results of several laboratories.
Each numbered part is a random draw from the data of one study; scales do not carry over between parts. Changes are numbered by the printed parent chain.

Set 1 — technique: RNA Bind-n-Seq; form: RNA; sample: in vitro; tested at: 365 nM; relative to: no-protein control; reading: higher = stronger binding
Target: RNA binding protein fox-1 homolog 2, RRM domain, GST-SBP tag (RBFOX2, Homo sapiens, UniProt O43251-10, residues 100-194)
Setting: natural RNA segment, single round, ends assumed
Shared flanks, not repeated: GGGAGUUCUACAGUCCGACGAUC … UGGAAUUCUCGGGUGCCAA
Strand	RBNS enrichment (R)
UGCGCUCUGUGGAUGCCAGGGCCGACCAGAGGAGCCUUUUUAAAACACAUGUUUUUAUACAAAAUAAGAACGAGGAUUUUAAUUUUUUUUAGUAUUUAUUUAUGUACUUU	0.532
AUCCUUCUGAUUGGGUGGGGCGAGCAUCCCAGUGUCCAAAAAUUCCAGCCUAAAUGACAGGUCCUCUGAAAAAGAGGUGCUGAGGAGUAAUGGGGCCAGCUGAUUAAAGA	0.566
GCUCUCAGCCCUGCAGAAACCACCUCUUCCUUUGUCUUUGAAUGCAACUCAUAGCCAAGGUGGUCUGAUCGUAGACAUUCCUUCCCUGCCCCAUGCGCUUGCCUCUCUCU	4.44
GUUAUGGGAAAGGGAGGGGGAGAAGAAAUUGACAUUUAUUUUAUUAUUUAUUUUAAAUGUUUACAUCUUCUUUAUGUUGUAUCAAGCCUGAAUAGAAACUGAUAGCAUUA	2.03
CACAGCUUCCUCUCUUAUAUUAAUUGAUGGAAUUUUACUGUAUGUGCCUCUGUACAAGAUGUAGCUUUGAGAGCUACAAAAUGAUAACACUGCUUUAUUACACACUGGUU	0.448
AUCUUGAGAGCUGAGGCUAGGUCCUCCCAGCUACUGUUAGGCAUUGAGGUACUAAAACUGCAGGUGGGUAUGUCCAUCUCAUCCAUUGUGGCUUGAGACCGGCCUUCAGG	0.382
AUUUUUAAAAAGAGAGUGAAGGAACCAACACUGAUUUGUACAUAAUAAAAAUGUGUGUAUUAUAUAUAUAUAUUUUUUCCUCCUUGACAGUACUUGGUCACAAUAUCAAG	0.484
GCUGGGGUUUCUAGUAAAGUCUGUGAGCCUCUCCACCAGUCCCUGUAAAUGCUAAUGCAGCCCAGCCCUGCCUGUUGUUUUGGAUCCUUGGUGUCUCAUGUGUACUUCCU	0.724

Set 2 — technique: aptamer microarray, sandwich; form: DNA with 2'F-ANA; sample: in vitro; tested at: 200 nM; added: Cy3 exosite-II aptamer, 400 nM; reading: higher = stronger binding; strand: GGTTGGTGTGGTTGG
Target: Prothrombin, mature alpha-thrombin (F2, Homo sapiens, UniProt P00734)
Setting: whole 15-mer aptamer, many near background
Modification	mean fluorescence intensity [a.u.]
2'F-ANA at 2 3 4 9 14	251
2'F-ANA at 2 4 6 7 8 10 11 12 13 15	82.4
2'F-ANA at 2 3 6 8 9 10 11 12 15	434
2'F-ANA at 1 2 3 7 8 9 10 14	56.9
2'F-ANA at 1 5 7 9 10 13 14	46.8
2'F-ANA at 1 2 4 5 6 7 12	123
2'F-ANA at 2 3 4 7 8 9 10 13 15	257
2'F-ANA at 1 4 6 11	99.5

Set 3 — target: CCND3, cyclin fold, Cln2 fusion (human); technique: yeast growth competition, sequencing; sample: yeast; setting: weak parent motif; relative to: not given; reading: higher = stronger binding
Starting sequence: TICRR docking peptide (human); TKVRRNLFNQELL; partner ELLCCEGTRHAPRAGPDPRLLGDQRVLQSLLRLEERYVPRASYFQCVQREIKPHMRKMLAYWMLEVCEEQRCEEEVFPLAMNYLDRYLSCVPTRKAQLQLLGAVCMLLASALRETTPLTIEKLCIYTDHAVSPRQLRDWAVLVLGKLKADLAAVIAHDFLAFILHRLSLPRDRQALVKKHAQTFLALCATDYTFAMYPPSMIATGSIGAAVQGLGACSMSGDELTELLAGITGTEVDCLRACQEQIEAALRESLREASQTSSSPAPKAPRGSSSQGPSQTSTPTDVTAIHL
Variant	normalised enrichment score
L13A	0.118
V3A	-0.0278
R5K F8L	0.489
R5A	0.177
Q10A	0.06
N6A	0.08
N9A	0.139

Mixed results
Substance	target	assay	test system	conditions	how to read	endpoint	result
PhoQ, residues 284 288 289 292 302 303 SMYGEC	PhoP, residues 12 14 15 18 19 VHSCL (Escherichia coli, UniProt P23836)	Sort-seq, item: YFP reporter	E. coli	PhoQ-PhoP variant library, added: 10 µM Mg2+	relative to: high Mg2+ state, higher = stronger signaling	fold induction	8.03

For quick reference, copied from above (set 3):
Variant	normalised enrichment score
R5K F8L	0.489
L13A	0.118
